Experimental data pooled from the literature.
Parts stem from different laboratories: compare values within a part only. Changes are numbered by the printed parent chain.

Set 1
Target: vanadate, free oxyanion
Method: microfluidic competitive inhibition
Matrix: in vitro, cell-free expressed
Concentration: not given
Notes: derived from inhibition constants, unchanged parent 676 nM
Direction: lower = stronger binding
Starting sequence: PafA, mature enzyme, eGFP fusion (Elizabethkingia meningoseptica, UniProt Q9KJX5); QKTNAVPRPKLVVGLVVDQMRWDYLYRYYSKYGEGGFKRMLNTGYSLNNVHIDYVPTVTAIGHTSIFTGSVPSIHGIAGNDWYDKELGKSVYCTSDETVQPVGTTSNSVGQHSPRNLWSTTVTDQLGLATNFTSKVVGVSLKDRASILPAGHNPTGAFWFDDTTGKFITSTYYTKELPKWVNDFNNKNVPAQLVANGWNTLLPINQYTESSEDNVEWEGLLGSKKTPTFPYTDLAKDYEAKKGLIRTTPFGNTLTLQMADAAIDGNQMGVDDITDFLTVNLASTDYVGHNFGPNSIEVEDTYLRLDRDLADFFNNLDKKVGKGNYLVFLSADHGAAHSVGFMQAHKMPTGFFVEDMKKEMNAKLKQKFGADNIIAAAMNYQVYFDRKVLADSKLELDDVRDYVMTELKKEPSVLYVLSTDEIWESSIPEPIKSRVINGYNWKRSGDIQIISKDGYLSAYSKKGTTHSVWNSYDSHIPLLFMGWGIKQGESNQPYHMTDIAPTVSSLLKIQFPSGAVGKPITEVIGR
Variant	oxyanion analog dissociation constant
K387G	995 nM
A262V	731 nM
G454A	629 nM
L234G	766 nM
W198V	699 nM
L256V	559 nM

Set 2
Target: CCND3, cyclin fold, Cln2 fusion (human)
Method: yeast growth competition, sequencing
Matrix: yeast
Notes: weak parent motif
Reference: not given
Direction: higher = stronger binding
Starting sequence: viral docking peptide; TSVRRALFTGGSD; partner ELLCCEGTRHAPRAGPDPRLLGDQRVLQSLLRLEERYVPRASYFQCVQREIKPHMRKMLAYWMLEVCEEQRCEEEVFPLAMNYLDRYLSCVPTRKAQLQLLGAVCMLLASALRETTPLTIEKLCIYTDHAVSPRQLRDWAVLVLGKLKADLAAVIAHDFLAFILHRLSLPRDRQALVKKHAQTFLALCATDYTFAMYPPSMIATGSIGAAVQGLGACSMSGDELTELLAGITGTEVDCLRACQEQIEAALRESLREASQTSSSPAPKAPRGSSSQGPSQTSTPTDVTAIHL
Variant	normalised enrichment score
TSVRRALTTGGSD [F8T]	0.239
TSVRRALFTYGSD [G10Y]	0.0724
TFVRRALFTGGSD [S2F]	0.102
TSVRRYLFTGGSD [A6Y]	-0.138
TSVRRALFTGGKD [S12K]	-0.555
TSVDRALFTGGSD [R4D]	-0.479
TSIRRALFTGGSD [V3I]	0.108
TSVRRAKFTGGSD [L7K]	0.463
TSVRRALFNGGSD [T9N]	0.0451
TSVRKALLTGGSD [R5K F8L]	0.181
TCVRRALFTGGSD [S2C]	0.131
TSVRRALFTGPSD [G11P]	0.291
TSVRRALVTGGSD [F8V]	-0.0371
TSVRRILFTGGSD [A6I]	0.381
TSVRRALFTEGSD [G10E]	0.382
TSSRRALFTGGSD [V3S]	-0.357
TSVRRALRTGGSD [F8R]	-0.0417
TSVRRALFTGMSD [G11M]	-0.00899
TSVRRALFTGVSD [G11V]	0.0813
TSVSRALFTGGSD [R4S]	0.336
TSVGRALFTGGSD [R4G]	-0.45
TSVRWALFTGGSD [R5W]	0.382
TSVRRWLFTGGSD [A6W]	-0.256
TSVRRALFTGGQD [S12Q]	0.286
TSVRRALFTGQSD [G11Q]	0.0647

Set 3
Target: Sox, HMG box (Pigoraptor chileana)
Method: Spec-seq
Form: double-stranded DNA, one strand shown
Matrix: in vitro
Concentration: not given
Notes: whole probe, mean of replicates
Reference: not given
Direction: lower = stronger binding
Shared flanks, not repeated: GAGTCGTCTCGTCAGCAC … CCGTAGAGCACTCAGGTC
Construct (chain): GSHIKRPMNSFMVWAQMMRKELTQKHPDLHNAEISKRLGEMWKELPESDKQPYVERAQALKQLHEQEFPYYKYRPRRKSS
Sequence	relative binding energy
CATGTGG	0.648 ln ratio
TTCGGTT	0.709 ln ratio
CATCCTG	0.846 ln ratio
GAACGTT	1.36 ln ratio
CATTGCG	0.177 ln ratio
CATCCAA	0.0597 ln ratio
CATCGTT	0.56 ln ratio
GGTAGTT	0.913 ln ratio

Set 4
Target: UDP-N-acetylglucosamine--peptide N-acetylglucosaminyltransferase 110 kDa subunit (OGT, Homo sapiens, UniProt O15294)
Chain of UniProt O15294 (whole entry, looked up): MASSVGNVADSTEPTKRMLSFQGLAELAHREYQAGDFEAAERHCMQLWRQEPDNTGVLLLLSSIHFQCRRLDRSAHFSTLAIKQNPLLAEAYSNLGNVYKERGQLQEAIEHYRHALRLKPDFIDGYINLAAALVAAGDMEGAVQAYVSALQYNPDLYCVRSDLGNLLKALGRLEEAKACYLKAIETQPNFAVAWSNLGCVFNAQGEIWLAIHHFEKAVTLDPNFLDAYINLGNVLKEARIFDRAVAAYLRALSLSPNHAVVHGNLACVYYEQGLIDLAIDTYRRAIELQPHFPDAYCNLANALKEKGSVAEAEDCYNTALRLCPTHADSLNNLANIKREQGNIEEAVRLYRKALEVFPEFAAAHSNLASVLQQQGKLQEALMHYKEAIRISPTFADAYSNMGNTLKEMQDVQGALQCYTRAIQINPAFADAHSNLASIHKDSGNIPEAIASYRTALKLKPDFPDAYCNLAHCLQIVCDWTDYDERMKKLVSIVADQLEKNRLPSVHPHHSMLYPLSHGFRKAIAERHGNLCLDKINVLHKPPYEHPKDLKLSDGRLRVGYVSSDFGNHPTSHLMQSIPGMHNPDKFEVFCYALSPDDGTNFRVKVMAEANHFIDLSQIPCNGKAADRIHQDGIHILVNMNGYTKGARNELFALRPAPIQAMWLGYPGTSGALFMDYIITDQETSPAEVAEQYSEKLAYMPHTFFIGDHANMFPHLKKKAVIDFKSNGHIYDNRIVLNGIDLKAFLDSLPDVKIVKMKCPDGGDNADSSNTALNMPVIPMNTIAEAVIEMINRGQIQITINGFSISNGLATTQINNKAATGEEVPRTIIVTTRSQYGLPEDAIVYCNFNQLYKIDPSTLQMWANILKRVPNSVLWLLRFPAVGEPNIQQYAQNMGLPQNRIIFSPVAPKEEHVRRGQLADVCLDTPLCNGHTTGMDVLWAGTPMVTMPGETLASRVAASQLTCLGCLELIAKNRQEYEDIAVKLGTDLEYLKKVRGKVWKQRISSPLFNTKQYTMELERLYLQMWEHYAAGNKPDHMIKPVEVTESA
Effect on: phage display binding
Method: phage display panning NGS
Form: peptide
Notes: panning round 3
Reference: OGT-panned over input library
Molecule	fold enrichment
WPVQPMYQIFGRYPE	2.32
MWSPTVPPKYIIKYK	2.59
NFLPFYAIQTFNNAT	2.78

Set 5
Target: CRIPT, C-terminal peptide
Method: DHFR complementation, deep sequencing
Matrix: yeast
Notes: single substitutions, model-inferred values
Reference: wild type
Direction: higher = weaker binding
Starting sequence: ERBIN, PDZ domain 1 (human); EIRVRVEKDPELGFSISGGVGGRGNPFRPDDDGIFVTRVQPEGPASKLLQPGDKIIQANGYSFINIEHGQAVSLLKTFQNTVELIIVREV; partner TKNYKQTSV
Variant	binding free energy change [kcal/mol]
G24N	1.39
V72W	2.14
R88I	0.996
V90L	-0.0166
D31V	0.813
F14T	0.501
T77H	0.0413
Q40Y	0.433

Excerpt of the above (set 5):
Variant	binding free energy change [kcal/mol]
V72W	2.14
T77H	0.0413
Q40Y	0.433
F14T	0.501
V90L	-0.0166
G24N	1.39
